Literature values, collected from citations in different studies.
Compare with care: the assays were run in different laboratories.
Chain of UniProt P41143 (whole entry, looked up): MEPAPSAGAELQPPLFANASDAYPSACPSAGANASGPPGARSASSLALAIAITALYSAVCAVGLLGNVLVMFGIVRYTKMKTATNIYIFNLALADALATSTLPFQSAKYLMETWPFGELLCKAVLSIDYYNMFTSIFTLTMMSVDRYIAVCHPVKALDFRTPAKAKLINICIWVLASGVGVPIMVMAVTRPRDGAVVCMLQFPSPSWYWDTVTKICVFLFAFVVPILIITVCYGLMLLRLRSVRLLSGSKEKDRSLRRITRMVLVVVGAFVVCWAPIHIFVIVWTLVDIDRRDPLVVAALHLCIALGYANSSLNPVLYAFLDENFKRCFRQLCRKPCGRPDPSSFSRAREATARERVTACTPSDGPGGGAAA

Structure (SMILES)	target or system	test	setting	how to read	measurement	value
OCCN1CCN(CCC=C2c3ccccc3Sc3ccc(C(F)(F)F)cc32)CC1	MCF7	microarray, measured: TRAF5 mRNA	concentration not given	reference: DMSO	log2 fold change	1.12
COc1cccc(CCc2cc(O)c(=O)[nH]n2)c1	D-amino acid oxidase rat	inhibitor			IC50	5.6 nM
Oc1ccc2c3c1O[C@H]1c4[nH]c5ccccc5c4C[C@@]4(O)[C@@H](C2)N(CC2CC2)CC[C@]314	Delta-type opioid receptor (OPRD1, Homo sapiens, UniProt P41143)				Hill coefficient	1
O=C1Nc2ccc(Cl)cc2[C@@](C#CC2CC2)(C(F)(F)F)O1	HIV-1 reverse transcriptase K101Q			reference: mutant over wild type	EC50 fold change	3.06 fold
O=C(O)/C(=C/c1c(C(=O)O)[nH]c2cc(Cl)cc(Cl)c12)c1ccccc1	Glutamate receptor ionotropic, NMDA 1 (Grin1, Rattus norvegicus, UniProt P35439)				Ki	21 nM
Cc1ccnc2c1NC(=O)c1cccnc1N2C1CC1	HIV-1 reverse transcriptase K101Q		cell-based	reference: mutant over wild type	IC50 fold change	1.2 fold
O=C(NCc1ncc(-c2ccc(Br)cc2)[nH]1)Nc1ncc(Sc2ccccn2)s1	Streptococcus pneumoniae FabK	inhibitor			IC50	2.4 nM
CC1=CC(=O)c2c(O)cccc2C1=O	TRPV2	allosteric modulator			IC50	85 nM

Repeated from above:
Structure (SMILES)	target or system	test	setting	how to read	measurement	value
O=C(NCc1ncc(-c2ccc(Br)cc2)[nH]1)Nc1ncc(Sc2ccccn2)s1	Streptococcus pneumoniae FabK	inhibitor			IC50	2.4 nM
